Measured values gathered from unrelated publications.
Numbers after ± are the reported error. Values after ≈ are worked out from the molar mass of the structure shown.

SMILES | assay | system | setting | how to read | endpoint | result
COc1cc2c(cc1OC)CN(CCCCn1ccc3cc(OCC[18F])ccc31)C2 |  | male CD-1 mouse, liver | intravenous, 2 min |  | tracer uptake | 7.42 %ID/g
Oc1ccc2ccccc2c1/N=N/c1ccc(/N=N/c2ccccc2)cc1 |  | rat whole blood extract | 0.2 µg/L, 30 days, -20 °C, long-term storage |  | measured concentration | 0.204 µg/L
O=C(NC1CC1)N1CC=C(c2cc3c(Nc4cc5ncsc5cc4F)ncnc3s2)CC1 | metabolic stability | human, liver microsomes |  |  | half-life | > 2 h
Cc1ccc(OCC(=O)O)cc1 |  | Sprague-Dawley rat, female, plasma | oral, 30 mg/kg/day of parent drug, day 1, 90-day repeated dosing |  | Cmax | 4.07 ± 0.922 µg/mL
O=C([O-])CN1CCN(CC(=O)[O-])CCN(CC(=O)NCC2CCC(C(=O)NC(Cc3ccc4ccccc4c3)C(=O)NCCCCC(NC(=O)NC(CCC(=O)O)C(=O)O)C(=O)O)CC2)CCN(CC(=O)[O-])CC1.[44Sc+3] (stereo not shown) | transmetallation stability |  | 1 h, 37 °C, together with: Mg2+ 10 mM |  | intact complex | 98.3 ± 0.5%
CC(C)C[C@@H](NC(=O)[C@H](NC(=O)[C@H]1CCCN1)[C@H](C)O)C(=O)N[C@H](Cc1c[nH]cn1)C(=O)N[C@@H](C(=O)N[C@H](Cc1c[nH]cn1)C(=O)N[C@H](CC(N)=O)C(=O)N[C@H](CCCNC(=N)N)C(=O)N[C@H](CCCNC(=N)N)C(=O)N[C@H](CCCNC(=N)N)C(=O)N[C@H](CCCNC(=N)N)C(=O)N[C@H](CCCNC(=N)N)C(N)=O)[C@H](C)O |  | Beagle dog, CSF | oral, 20 mg/kg, last 2 time points |  | apparent half-life | 190 ± 93 h
CC(C)(F)CC(NC(c1ccc(-c2ccc(S(C)(=O)=O)cc2)cc1)C(F)(F)F)C(=O)NCC#N (stereo not shown) | LC-MS UV trace | aqueous buffer | 23 h, pH 7.5, 37 °C, together with: GSH 5 mM |  | GSH adduct formation | < 1%
[11CH3]c1ccc2nc(C3CCC3)n(-c3ccc4[nH]ncc4c3)c2n1 |  | human female, breasts | extrapolated from mouse biodistribution |  | absorbed radiation dose | 2.5 µSv/MBq
O=C(O)C1CN(Cc2ccc(-c3noc(-c4ccc(OCC[18F])c(C(F)(F)F)c4)n3)cc2)C1 |  | rat, heart | intravenous, 5 min |  | tracer uptake | 0.811 %ID/g
CC(C)[C@H](NC(=O)CNC(=O)[C@H](CCC(N)=O)NC(=O)[C@H](C)N)C(=O)O | LC-MS/MS | human, male, plasma | intravenous, 30 mg/kg three times daily, day 2, first dose, 10 min infusion, geometric mean |  | volume of distribution | 19 L/kg
Cc1cn(CC(=O)N[C@@H](Cc2ccccc2)C(=O)N[C@@H](Cc2ccccc2)C(=O)N[C@H]2C(O)O[C@H](CO)[C@@H](O)[C@@H]2O)c(=O)[nH]c1=O (stereo partly shown) |  | water | 3.0 wt%, pH-triggered gelation |  | pH of hydrogelation | ~8.5
Cc1cc2c(cc1C1(c3ncc(C(=O)O)cn3)CC1)C(C)(C)CCC2(C)C |  | Sprague-Dawley rat, male, plasma | oral, 100 mg/kg, 6 h, sesame oil vehicle |  | LDL level | 9 ± 5.5 mg/dL
CCCC(CCC)NC(=O)c1ccc(OC2OC(C(=O)O)C(O)C(O)C2O)c(OC)c1 (stereo not shown) |  | male Sprague-Dawley rats, plasma | oral, 50 mg/kg of parent drug | reference: 50 over 20 mg/kg dose | AUC(0-last) ratio | 2.17
CCn1c(=O)n(CCO)c(=O)c2c1nc(/C=C/c1ccc(OC)c(OC)c1)n2C |  | healthy humans, plasma | oral, 40 mg, together with: rifampin 600 mg/day | reference: with over without rifampin | geometric mean ratio AUClast | 0.32
COC(=O)C1OC(Oc2c(-c3ccccc3)oc3cc(O)c(O)c(O)c3c2=O)C(O)C(O)C1O (stereo not shown) |  | BALB/c mouse, spleen | 1 mg/kg |  | organ weight | 0.79 ± 0.6 g
CCCCCCC(=O)C(=O)C(O)CO (stereo not shown) |  | aqueous buffer | 1 to 5 mM, pH 7.4 |  | surface tension decrease | ~17 mN/m
CC(C)C(=O)NC1CC=C(c2cc3c(Nc4cc5ncsc5cc4F)ncnc3s2)CC1 (racemic) | metabolic stability | human, liver microsomes |  |  | half-life | 0.888 h
CC12CC(c3ccc(S(C)(=O)=O)cc3)C3=C4CCC(=O)C=C4CCC3C1CCC2(O)C(F)(F)C(F)(F)F (stereo not shown) |  | human | oral, 5 mg single | reference: subjects | drug-related constipation incidence | 33.3%
CCOC(=O)c1[nH]c(C)c(/C=C/C2=[N+]3C(=C(c4cc(OC)cc(OC)c4)c4c(C)c(I)c(/C=C/c5c(C)[nH]c(C(=O)OCC)c5C)n4[B-]3(F)F)C(C)=C2I)c1C |  | THF |  |  | absorption maximum | 685 nm
Cc1[nH]c(/C=C2\C(=O)Nc3ccc(F)cc32)c(C)c1NC(=O)CCN1CCN(C)CC1 |  | Beagle dog, both sexes, plasma | oral, 3 mg/kg |  | AUC(0-t) | 0.836 ± 0.231 µg·h/mL
C[Si]1(C[C@H](CN)CC(=O)O)CCCC1 | neuromuscular coordination | Wistar rat male | oral, 100 mg/kg, 1 h |  | performance time | 180 s
[2H]C([2H])([2H])NC(=O)c1ccc(N2C(=S)N(c3ccc(C#N)c(C(F)(F)F)c3)C(=O)C2(C)C)cc1F |  | male human, plasma | oral, 80 mg, single dose, fasted |  | Tmax | 1.5 h
CCCCC1NC(=O)c2ccccc21 (racemic) |  | Wistar rat, plasma | oral, 10 mg/kg |  | CL/F | 0.774 L/h/kg

SMILES | assay | system | setting | how to read | endpoint | result
O=C(O[C@H](CO)C(F)(F)F)N1C[C@@H]2[C@H](C1)[C@H]2c1ccn(-c2ccc([18F])nc2)n1 |  | Sprague-Dawley rat, plasma | dose not given, 30 min |  | parent fraction of radioactivity | 46%
CC(C)C[C@H](NC(=O)C[C@H](O)[C@H](CC(C)C)NC(=O)[C@H](Cc1c[nH]cn1)NC(=O)CNC(=O)[C@@H](NC(=O)[C@H](C)NC(=O)[C@H](Cc1c[nH]c2ccccc12)NC(=O)[C@H](CCC(N)=O)NC(=O)[C@@H](Cc1ccccc1)NC(=O)CCNC(=O)CCNC(=O)CN1CCN(CC(=O)O)CCN(CC(=O)O)CCN(CC(=O)O)CC1)C(C)C)C(N)=O [lutetium-177 labelled] | MIRD | mouse PC-3 xenograft, pancreas | intraperitoneal, 50 MBq, without PA |  | absorbed dose | 4.4 Gy
CC(=O)N[C@H](CC(=O)O)C(=O)N[C@H](Cc1c[nH]c2ccccc12)C(=O)N[C@H](Cc1ccccc1)C(=O)N[C@H](CCCCN)C(=O)N[C@H](C)C(=O)N[C@H](Cc1ccccc1)C(=O)N[C@H](Cc1ccc(O)cc1)C(=O)N[C@H](CC(=O)O)C(=O)N[C@H](CCCCN)C(=O)N[C@@H](C(=O)N[C@H](C)C(=O)N[C@H](CCC(=O)O)C(=O)N[C@H](CCCCN)C(=O)N[C@H](Cc1ccccc1)C(=O)N[C@H](CCCCN)C(=O)N[C@H](CCC(=O)O)C(=O)N[C@H](C)C(=O)N[C@H](Cc1ccccc1)C(N)=O)C(C)C |  | statin-treated high-risk CHD men, plasma | oral, 100 mg daily, day 13, 0 to 8 h, mean, detected subjects only |  | Cmax | 0.00272 µg/mL
NCC(=O)N1CCC[C@H]1C(=O)N1C[C@H](O)C[C@H]1C(=O)O |  |  | 37 °C, MAH complex, ionic strength 0.15, together with: Fe(III) |  | log β | 20.8
Cn1c(=O)oc2ccc(-c3ccc(CC(C#N)NC(=O)C4CNCCCO4)c(F)c3)cc21 (stereo not shown) | measured: alanine aminotransferase increased | human | 60 mg single dose, fasted |  | subjects with TRAE | 0%
COc1ccc2cc(-c3ccc(-c4ccc(C)cn4)nc3)oc2c1 | TCSPC | CHCl3 |  |  | fluorescence lifetime | 1.57 ns
CC[C@H](C)[C@H](NC(=O)[C@H](C)NC(=O)[C@H](CC(N)=O)NC(=O)[C@H](CCCNC(=N)N)NC(=O)[C@H](CCCNC(=N)N)NC(=O)[C@H](CC(N)=O)NC(=O)[C@H](CCCNC(=N)N)NC(=O)[C@H](CCCNC(=N)N)NC(=O)[C@H](C)NC(=O)[C@@H](NC(=O)[C@H](CC(C)C)NC(=O)[C@@H](NC(=O)[C@@H](NC(=O)[C@H](CS)NC(=O)[C@H](CCCCN)NC(=O)[C@@H](N)CCCNC(=N)N)C(C)C)[C@@H](C)CC)C(C)C)C(=O)N[C@H](C(=O)N[C@H](C(=O)N[C@@H](CC(C)C)C(=O)N[C@@H](CS)C(=O)N[C@@H](CCCNC(=N)N)C(=O)O)[C@@H](C)CC)C(C)C | LC-MS | PBS | 0.1 mg/mL |  | single disulfide form | 34%
COc1ccc(-c2csc(N/N=C(\C)c3cc(O)cc(O)c3)n2)cc1 | LC-MS/MS | rat plasma | 3.75 ng/mL, 45 days, -70 °C |  | long-term stability change | -5.87%
O=C(CNc1ccc(F)c(S(=O)(=O)N2CCOCC2)c1)Nc1ccc(F)c(Cl)c1 |  | water |  |  | kinetic solubility | 219 µM (≈ 97.6 µg/mL)
CC(C)(O)c1ncc([S@](N)(=O)=NC(=O)Nc2c3c(cc4c2CCC4)CCC3)s1 |  | human, plasma | oral, 30 mg, single dose, fasted, healthy volunteers |  | Tmax | 3 h
C[Si](C)(C)C[C@H](CN)CC(=O)O | neuromuscular coordination | Wistar rat male | oral, 100 mg/kg, 3 h |  | performance time | 180 s
CSCCC(NC(C)=O)C(=O)O.[Ru+2].c1ccc(-c2cccc(-c3ccccn3)n2)nc1.c1ccc(-c2ccccn2)nc1 |  | water | 470 nm light |  | photosubstitution quantum yield | 0.0027
COCC1CN(C2CCN(c3cc(OC)c(Nc4ncc(Br)c(Nc5ccc6c(c5P(C)(C)=O)OCCO6)n4)cc3C)CC2)C1 |  | human patients | oral, 10 to 240 mg once daily |  | treatment-related WBC increased, all grades | 11.1%
NC(COc1ccccc1C(F)(F)F)c1ccccc1 (stereo not shown) |  | male Sprague-Dawley rat, serum | intravenous, 5 mg/kg |  | clearance | 9.2 L/h/kg
CC(C)c1cnc(-c2cc(Cl)ccc2F)cc1Nc1ccncc1C(=O)NC(CO)CO | monotherapy, measured: headache | human patients | oral, dose not given, grade 2, phase I A |  | patients with treatment-related adverse event | 2.4%
COc1ccc(/C=C/c2ccc(-c3ccc(C)cn3)nc2)cc1 |  | EtOH | together with: quinine bisulfate reference |  | fluorescence quantum yield | 0.35
NCCC(=O)N1Cc2ccccc2-c2c(nnn2-c2nc3c(N)ncnc3n2C2OC(CO)C(O)C2O)-c2ccccc21 (mixture of isomers) |  | methanol | red edge of spectrum |  | second excitation maximum | 360 nm
Cc1ccc(/N=N/c2c(O)ccc3ccccc23)c(C)c1 |  | Sprague-Dawley rats both sexes, whole blood | oral, 50 mg/kg |  | MRT(0-inf) | 2.61 h
N=C(N)NCCC[C@@H]1NC(=O)[C@H](Cc2c[nH]c3ccccc23)NC(=O)[C@@H](CC2CCCCC2)NC(=O)[C@@H]2CCCN2C(=O)[C@@H](NC(=O)CCc2ccccc2)CCCNC1=O | two-compartment model | C57BL/6J mice, brain | subcutaneous, 1 mg/kg |  | beta rate constant | 0.38 h⁻¹
CCOCn1cc(F)c(=O)n(C(=O)c2cccc(C(=O)Oc3cc(OC(=O)c4cc(OC(=O)CC)nc(OC(=O)CC)c4)c(Cl)cn3)c2)c1=O |  | human patients | oral, dose not given, phase I/II, preliminary |  | tolerability | not toxic
C#CCOc1ccc(/C=C2\SC(=O)N(CC(=O)NCc3ccccc3)C2=O)cc1 | inverse Kirkwood-Buff integrals | binary solvent mixture | concentration not given, 298.15 K, mole fraction x1 0.30 |  | correlation volume | 2990 cm³/mol
CC(C)CCCC(C)CCCC(C)CCO[C@@H]1O[C@H](CO)[C@@H](O[C@H]2O[C@H](CO)[C@@H](O)[C@H](O)[C@H]2O)[C@H](O)[C@H]1O (stereo partly shown) | dynamic surface tension |  | 0.0072 mmol/L |  | equilibrium surface tension | 36.3 mN/m
C=C(c1cc(F)c(C(=O)O)c(F)c1)c1cc2c(cc1C)C(C)(C)CCC2(C)C |  | Sprague-Dawley rat, male | oral, 100 mg/kg, 6 h, sesame oil vehicle |  | blood triglycerides | 191 ± 56.7 mg/dL

Excerpt of the above:
SMILES | assay | system | setting | how to read | endpoint | result
CC(C)C[C@@H](NC(=O)[C@H](NC(=O)[C@H]1CCCN1)[C@H](C)O)C(=O)N[C@H](Cc1c[nH]cn1)C(=O)N[C@@H](C(=O)N[C@H](Cc1c[nH]cn1)C(=O)N[C@H](CC(N)=O)C(=O)N[C@H](CCCNC(=N)N)C(=O)N[C@H](CCCNC(=N)N)C(=O)N[C@H](CCCNC(=N)N)C(=O)N[C@H](CCCNC(=N)N)C(=O)N[C@H](CCCNC(=N)N)C(N)=O)[C@H](C)O |  | Beagle dog, CSF | oral, 20 mg/kg, last 2 time points |  | apparent half-life | 190 ± 93 h
C#CCOc1ccc(/C=C2\SC(=O)N(CC(=O)NCc3ccccc3)C2=O)cc1 | inverse Kirkwood-Buff integrals | binary solvent mixture | concentration not given, 298.15 K, mole fraction x1 0.30 |  | correlation volume | 2990 cm³/mol
CCn1c(=O)n(CCO)c(=O)c2c1nc(/C=C/c1ccc(OC)c(OC)c1)n2C |  | healthy humans, plasma | oral, 40 mg, together with: rifampin 600 mg/day | reference: with over without rifampin | geometric mean ratio AUClast | 0.32
O=C([O-])CN1CCN(CC(=O)[O-])CCN(CC(=O)NCC2CCC(C(=O)NC(Cc3ccc4ccccc4c3)C(=O)NCCCCC(NC(=O)NC(CCC(=O)O)C(=O)O)C(=O)O)CC2)CCN(CC(=O)[O-])CC1.[44Sc+3] (stereo not shown) | transmetallation stability |  | 1 h, 37 °C, together with: Mg2+ 10 mM |  | intact complex | 98.3 ± 0.5%
